Measured values collected from several papers.
Numbered parts are unrelated; each lists some results of a single study.
Sequence of UniProt P34969 (whole entry, looked up): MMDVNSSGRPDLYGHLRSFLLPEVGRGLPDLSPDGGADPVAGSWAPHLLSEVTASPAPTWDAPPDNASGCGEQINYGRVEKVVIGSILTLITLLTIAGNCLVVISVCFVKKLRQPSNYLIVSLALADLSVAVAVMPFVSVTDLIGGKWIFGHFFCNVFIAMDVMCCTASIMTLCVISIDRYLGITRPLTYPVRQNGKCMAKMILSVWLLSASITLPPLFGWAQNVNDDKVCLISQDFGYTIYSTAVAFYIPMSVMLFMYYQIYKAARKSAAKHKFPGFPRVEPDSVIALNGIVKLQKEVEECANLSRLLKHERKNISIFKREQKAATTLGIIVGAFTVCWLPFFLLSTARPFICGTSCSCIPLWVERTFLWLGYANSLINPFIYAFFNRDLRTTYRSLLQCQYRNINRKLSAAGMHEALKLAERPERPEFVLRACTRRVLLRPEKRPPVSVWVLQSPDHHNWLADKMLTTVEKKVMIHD

Series 1 — species: mouse; medium: microsomes or S9; tested at: 2 µM; time: 0.5 h; quantity: remaining compound
Compound = CCOc1cc(=O)n2c(c1C(=O)NCc1ccc(C)o1)CCCCC2; value = 11.5%
Compound = O=C(CCc1ccc(C(F)(F)F)cc1)N1C2C=CCC1CC2 (stereo not drawn); value = 2.39%
Compound = CC(C)(C)OC(=O)N[C@@H](CC(=O)N1CCCN(S(C)(=O)=O)CC1)Cc1cc(F)c(F)cc1F; value = 0.435%
Compound = N#Cc1cnc(NCC2CCN(CC(O)c3ccccc3)CC2)cn1 (stereo not drawn); value = 96.7%

Series 2 — organism: Sarcocystis neurona; effect on: parasite growth; tested at: 10 µM; time: 96 h; quantity: inhibition
SMILES = CN(C)c1nc(N(C)C)nc(N(C)C)n1; value = -17.9%
SMILES = C=CC1=C(C(=O)O)N2C(=O)[C@@H](NC(=O)/C(=N\O)c3csc(N)n3)[C@H]2SC1; value = -16.2%
SMILES = CCN1CCN(c2cc3c(cc2F)c(=O)c(C(=O)O)cn3C2CC2)CC1; value = -0.9%
SMILES = CC(C)[C@H]1CC[C@H](C(=O)N[C@H](Cc2ccccc2)C(=O)O)CC1; value = -6.2%

Series 3 — action: antagonist; quantity: IC50
Target: Beta-1 adrenergic receptor (ADRB1, Homo sapiens, UniProt P08588)
Sequence of UniProt P08588 (whole entry, looked up): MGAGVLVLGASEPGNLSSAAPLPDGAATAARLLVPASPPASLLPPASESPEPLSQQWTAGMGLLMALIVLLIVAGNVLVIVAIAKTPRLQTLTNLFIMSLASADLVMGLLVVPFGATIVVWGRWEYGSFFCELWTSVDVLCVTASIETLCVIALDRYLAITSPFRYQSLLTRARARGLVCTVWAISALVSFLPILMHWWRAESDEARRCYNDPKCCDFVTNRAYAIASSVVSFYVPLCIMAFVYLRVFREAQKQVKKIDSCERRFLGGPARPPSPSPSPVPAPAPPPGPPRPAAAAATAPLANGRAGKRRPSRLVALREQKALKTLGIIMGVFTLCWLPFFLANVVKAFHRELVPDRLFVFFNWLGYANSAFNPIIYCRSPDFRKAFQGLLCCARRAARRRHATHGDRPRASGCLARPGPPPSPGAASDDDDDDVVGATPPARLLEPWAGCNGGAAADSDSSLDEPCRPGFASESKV
SMILES = O=C(NCC1CCN(CCc2ccccc2)C1)c1ccc2[nH]cnc2c1 (stereo not drawn); value = ≥ 100 µM
SMILES = N#C/C(=C\c1ccc(O)c(O)c1)c1nc2ccccc2[nH]1; value = ≥ 100 µM
SMILES = Fc1ccc(-c2nnc3ccc(N4CCN(c5ccccn5)CC4)nn23)nc1; value = ≥ 100 µM

Other studies, line by line
Compound = CO[C@@H](C)c1c(Nc2ccc([C@@H](N(C)C(=O)C3CCS(=O)(=O)CC3)C(F)(F)F)cc2)cnc2cc(Cl)nn12; target = 5-hydroxytryptamine receptor 7 (HTR7, Homo sapiens, UniProt P34969); effect on = binding; technique = radioligand binding; quantity = Ki; value = > 10 µM

For quick reference, copied from above (series 1):
Compound = CC(C)(C)OC(=O)N[C@@H](CC(=O)N1CCCN(S(C)(=O)=O)CC1)Cc1cc(F)c(F)cc1F; value = 0.435%
Compound = N#Cc1cnc(NCC2CCN(CC(O)c3ccccc3)CC2)cn1 (stereo not drawn); value = 96.7%
